Measurements gathered from unrelated publications.
Every numbered part comes from another study and shows a few of its results, in no order.

Study 1
Target: Interferon regulatory factor 3, full length, phosphomimetic (IRF3, Homo sapiens, UniProt Q14653, residues 1-427, S386D/S396D/S398D/S402D/T404D/S405D)
Method: protein-binding microarray
Molecule type: double-stranded DNA, one strand shown
Sample: in vitro
Tested at: 2540 nM top
Notes: 60-bp whole probe
Added: salmon DNA 0.4 mg/ml
Baseline: random background probes
Reading: higher = stronger binding
Endpoint: fitted relative affinity
All sequences stand within: GCCTAGCAC … GTCTTGATTCGCTTGACGCTGCTG
Residues (chain): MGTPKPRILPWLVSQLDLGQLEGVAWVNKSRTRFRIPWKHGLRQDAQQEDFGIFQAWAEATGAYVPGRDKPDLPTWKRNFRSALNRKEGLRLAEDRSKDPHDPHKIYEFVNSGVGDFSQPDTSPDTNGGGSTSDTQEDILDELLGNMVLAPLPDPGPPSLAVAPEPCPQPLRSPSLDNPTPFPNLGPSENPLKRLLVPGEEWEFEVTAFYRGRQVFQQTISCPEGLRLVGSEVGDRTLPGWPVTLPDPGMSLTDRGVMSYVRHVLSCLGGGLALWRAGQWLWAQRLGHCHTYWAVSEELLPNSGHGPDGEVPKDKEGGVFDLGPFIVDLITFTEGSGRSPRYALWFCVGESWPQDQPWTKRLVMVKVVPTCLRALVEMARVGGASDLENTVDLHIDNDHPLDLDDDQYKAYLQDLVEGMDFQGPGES
GACGATTTCAGACTGCAGACGTGCTAG: 1.1 z-score
CTTAGCTTGGGTCTGTGCCTGTGCTAG: -0.678 z-score
TCACTTTTATGCTCTTTCACTGTGCTA: 1.26 z-score
GACGATTCCCGTTTCGAGACGTGCTAG: 2.68 z-score
TTAGGTGTCGGGACTGGGTTAGTGCTA: 0.536 z-score
CACTGCATCTGATTTCTCAAAGTGCTA: 0.25 z-score
CTAGTTTTTACTTTCTGAATGTGCTAG: 3.38 z-score
TTAGGTTTCGAGACTGGGTTAGTGCTA: 3.09 z-score
TCAAAGATTGCCGTTTCCACTGTGCTA: 2.1 z-score
GACGATTTCGCGACTGGAGACGTGCTA: 0.559 z-score
GACGATATCGCGACTGGAGACGTGCTA: -0.179 z-score
GACGGACTGGGTCTCGAGACGTGCTAG: -0.695 z-score
TTAGGTTTCGGTTCCGGTCAGTGCTAG: 10.9 z-score
GACTGACTGGACTATCGGGACGTGCTA: -0.306 z-score
GACGGTTTCATTCTCCTGACGTGCTAG: 6.22 z-score
CACTCTGTCCCTCTGTGACAGTGCTAG: 1.31 z-score
GACGGACTGGGTTTCGTGACGTGCTAG: 0.182 z-score
GACGGCATCGACTATCGGGACGTGCTA: -0.825 z-score
TCATACATCTATGTAGAACTGTGCTAG: 0.192 z-score

Study 2
Target: RING finger protein unkempt homolog, zinc fingers 1-6, GST-SBP tag (UNK, Homo sapiens, UniProt Q9C0B0, residues 30-357)
Method: RNA Bind-n-Seq
Molecule type: RNA
Sample: in vitro
Tested at: not given
Notes: RNA with constant flanks, human-mouse chimeric sites, ends assumed
Baseline: input RNA pool
Reading: higher = stronger binding
Endpoint: bound/input enrichment
All sequences stand within: GGGAGUUCUACAGUCCGACGAUC … CAACAGAGGAUUGAGCAUCA
Target sequence (chain): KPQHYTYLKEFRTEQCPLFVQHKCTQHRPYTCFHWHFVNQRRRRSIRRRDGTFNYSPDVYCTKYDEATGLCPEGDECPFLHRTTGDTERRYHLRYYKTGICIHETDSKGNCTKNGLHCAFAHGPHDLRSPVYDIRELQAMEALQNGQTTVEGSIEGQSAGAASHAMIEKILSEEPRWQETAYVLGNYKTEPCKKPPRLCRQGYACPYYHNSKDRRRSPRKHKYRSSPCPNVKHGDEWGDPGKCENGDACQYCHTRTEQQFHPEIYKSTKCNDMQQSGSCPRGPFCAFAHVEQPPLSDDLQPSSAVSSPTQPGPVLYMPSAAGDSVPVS
GAUGAUAAUCACACAAACAAGUCACUGUUAUGUGACCAGCCUUGGGAUUCUUUUCCUGAUUAAUAUUCUCCCUGGAACCACUGGUCAAGGGGAAUCAAGACGACAAGAACCCGGGGACUU: 0.144 ratio
AACUUCGUGCAUCGGUUUCCCUUUGUAGCUGUUUCAAUUGGCUUCCUUGUGAAUAAAGAGAUGGAGUUUGGAAUUGUGUACAGUUGUGUGGAAGGCAAGAUGUACACCGGCAGGAAAGGG: 0.371 ratio
AAAUCGUGUGUGUCCAAUAUUGAAAGUGCUUUAUCUACACUCCAAUAUGUAAGCAGUAUAGUAGUUUCUUUAGAGAAUAGGUCAGCCAUUGUGAAGUACAAUGCAAGCUUAGUCACUCCA: 12.4 ratio
UACUACUAUGAUGGUGAUAUUGGCAAUUAUUAUUAUGGCCAGGGUCAUCCCAUGAAGCCUCAUAGAAUCCGGAUGACUCAUAACUUGCUGCUAAAUUAUGGCUUAUACAGAAAAAUGGAA: 0.203 ratio
AAAGUGAUGACUAUGUUUGUCCAACGACAGGUGUUUGCUGAGAACAAAGAUGAGAUUGCGUUAGUCCUCUAUGGCACAGAUGGCACUGAUAAUGCCCUUGCUGGCAAGGACCAGUAUCAG: 0.0841 ratio
UAAGUCCUGUGCCAGCACUUCGCUCAUAAAGUUUUAAAUUCUGGACCAAUAGUGUUUGUUUCCUGAUUAUUGUAUCCAAUACUUUGCCUAGUAUGUAACUCAUGCUUACUGAUAAUAAAA: 0.583 ratio
GAUAAGAAAAGCUUGUUGGAGACCCGCUUGCAUGUCACUGGUAGAGACCUGAGGUGUCAAAUAGCUGAAACCUUUGGAUUUCAAGAAAAUUAUAUCAAGAUCGUAAUAAAUAAGAAACAG: 0.675 ratio
GGACCAUAAUCAUGGAGGACAUAAUGCAGCUCCCCAAAGCGCGCGUCAACGCCAGCAUGUUACCACAGUAUAUCGACCGGCCCGUGUGCUUCGUGGGGAGGCUGGAAAAGAUUCAUCCCA: 0.134 ratio

Study 3
Target: RNA binding protein fox-1 homolog 2, RRM domain, GST-SBP tag (RBFOX2, Homo sapiens, UniProt O43251-10, residues 100-194)
Method: RNA Bind-n-Seq
Molecule type: RNA
Sample: in vitro
Tested at: 365 nM
Notes: natural RNA segment, single round, ends assumed
Baseline: no-protein control
Reading: higher = stronger binding
Endpoint: RBNS enrichment (R)
All sequences stand within: GGGAGUUCUACAGUCCGACGAUC … UGGAAUUCUCGGGUGCCAA
AUGAAGAAGUUCAACCUGGAGAGAUGGAAAAUCAGCUCUCAUAACUAAGUUAAUUUAGUAUAAAAAUAGAAUUGAUAGUGAGGGUAUAAAGUGUAACCAUCAGUUAAACC: 0.459
CCCCGGGCACCUCCUGCAACCAUCUCUGGGCUCAGCACCUGAGGCGGGUUUCCUGGGUCCCCUCUCCAGCAAGCCUCCACCAGCAAGCUCGGCCCAGAGCUUCCCUUCCG: 0.38
GUCUGUGUGCUCUCGCAAUGUUCCUGUCUAAUUCUUGACUGAUUCUGGGUCUGUCCUGACCUCUAGAGGUGAGCUUGCUGCUUGAGGUCUCCCAGCUCCUGACUGUGGCA: 0.559
GAGACUUCAGAUUGGAAUACCUUGGGAUCUCCUCACCCCACUUUACAGAACUGCCCAAUCCAGGGGCUCUGGGAUAUGGCUGCCCGGGAUUACAGAAAGACACGGCACUG: 0.7
UCUUUUUUCAAGGCUUAAAUUUUUUUUUUUCAUGACCUUCUGGAAGAAGCAAUAGUAGCAAUCUUAAAUUUGACUCAUAGGGGAGAUAAGCGUGUGUCUUUUUAACUUAG: 0.788
CCUGUUGGCUCACAGGGCUGAAAGGGGCUUUUGUCCUCCUGGGUCAGGGAGAACGCGGGGACCCCAGAAAGGUCAGCCUUCCUGAGGAUGGGCAACCCCCAGGUCUGCAG: 0.415
GCCCUUGGGUGCCAGCUCAGUGGGUGUGGGGAUCACAUGAGGUGGCUCAUGAGGACACACUCUGGAAGUCGAGGGGCUGCCACGUGCAGAGGAAGUUCCCGGCCUGGGGG: 0.448
AUAUUAUUAUUAAUAUUAUUAUGAAUUUUUGUAAGAAACCGAGGCGAUGCCACGCUUUGCUGCUACCGCCCUGGGCUGGACUGGAGGUGGGCAUGCCACCCUCACACACA: 0.391

Study 4
Target: Ras GTPase-activating protein-binding protein 1, full length (G3BP1, Homo sapiens, UniProt Q13283)
Chain of UniProt Q13283 (whole entry, looked up): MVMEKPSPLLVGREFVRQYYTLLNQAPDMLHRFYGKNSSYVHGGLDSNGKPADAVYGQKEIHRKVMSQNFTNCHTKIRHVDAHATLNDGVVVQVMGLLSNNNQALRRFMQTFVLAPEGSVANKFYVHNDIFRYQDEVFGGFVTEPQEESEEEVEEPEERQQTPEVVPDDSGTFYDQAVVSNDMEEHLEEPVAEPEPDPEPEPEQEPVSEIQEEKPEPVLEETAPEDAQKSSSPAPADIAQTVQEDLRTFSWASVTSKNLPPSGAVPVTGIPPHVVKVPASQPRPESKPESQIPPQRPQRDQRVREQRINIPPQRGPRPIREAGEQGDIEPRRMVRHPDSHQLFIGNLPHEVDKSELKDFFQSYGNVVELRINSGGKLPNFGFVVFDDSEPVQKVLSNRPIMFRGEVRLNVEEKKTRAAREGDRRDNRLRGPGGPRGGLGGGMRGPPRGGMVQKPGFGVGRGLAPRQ
Method: RNA Bind-n-Seq
Molecule type: RNA
Sample: in vitro
Tested at: 200 nM
Notes: whole 134-nt RNA, ends assumed
Added: 150 mM KCl
Baseline: input library
Reading: higher = stronger binding
Endpoint: log2 enrichment
All sequences stand within: GGGAGUUCUACAGUCCGACGAUC … UGGAAUUCUCGGGUGUCAAGG
CAAGUCCUGUGCUACACAUCGUAUGUACCGAAUCGGUUUUGGUUUUGGGUUUUGGAAAGUAUUAUGUUACGCCGUUCGGAUCUGCACUUC: -1.23
ACCAUGCAGGUGGGCAUCUUUGGGAAGUGGGGCAAGGGGGGGAUAGGUAGGGGGGUAACACUUUGGGAACAGGUGGUCCCAGGUCGUUUC: 0.867
CUCAAGUCCUGUGCUACACAUCGUAUGUACCGAAUCGGGUUGGGUUGGGUUGGGAAAGUAUUAUGUUACGCCGUUCGGAUCUGCACUUCC: 1.05
CCUGUGCUACACAUCGUAUGUACCGAAUCAAAGUGUGUGUGUGUGAAAUGUGUGUGUGAAAAAAGUAUUAUGUUACGCCGUUCGGAUCUG: -0.163
UCCUCAAGUCCUGUGCUACACAUCGUAUGUACCGAAUCGGUGGUUUGGAGGAAAGUAUUAUGUUACGCCGUUCGGAUCUGCACUUCCAGC: -0.533
AAGUCCUGUGCUACACAUCGUAUGUACCGAAUCGGAAAAAGGUUUUUUUGGUUUGGAAAGUAUUAUGUUACGCCGUUCGGAUCUGCACUU: -1.6
GUCCUGUGCUACACAUCGUAUGUACCGAAUCGGGUUUUUUUGGGUGGGUUUUUUUGGGAAAGUAUUAUGUUACGCCGUUCGGAUCUGCAC: -0.103
UCCUGUGCUACACAUCGUAUGUACCGAAUCGGGGUUUUUUUGGGGAGGGGUUUUUGGGGAAAGUAUUAUGUUACGCCGUUCGGAUCUGCA: 0.625
UACCUGAUCAAUGACAGAGCCUUCUGAGGACAUUCCAAGACAGUAUACAGUCCUGUGGUCUCCUUGGAAAUCCGUCUAGUUAACAUUUCA: -1.89

A few entries again (study 2):
AACUUCGUGCAUCGGUUUCCCUUUGUAGCUGUUUCAAUUGGCUUCCUUGUGAAUAAAGAGAUGGAGUUUGGAAUUGUGUACAGUUGUGUGGAAGGCAAGAUGUACACCGGCAGGAAAGGG: 0.371 ratio
AAAUCGUGUGUGUCCAAUAUUGAAAGUGCUUUAUCUACACUCCAAUAUGUAAGCAGUAUAGUAGUUUCUUUAGAGAAUAGGUCAGCCAUUGUGAAGUACAAUGCAAGCUUAGUCACUCCA: 12.4 ratio
UACUACUAUGAUGGUGAUAUUGGCAAUUAUUAUUAUGGCCAGGGUCAUCCCAUGAAGCCUCAUAGAAUCCGGAUGACUCAUAACUUGCUGCUAAAUUAUGGCUUAUACAGAAAAAUGGAA: 0.203 ratio
AAAGUGAUGACUAUGUUUGUCCAACGACAGGUGUUUGCUGAGAACAAAGAUGAGAUUGCGUUAGUCCUCUAUGGCACAGAUGGCACUGAUAAUGCCCUUGCUGGCAAGGACCAGUAUCAG: 0.0841 ratio
UAAGUCCUGUGCCAGCACUUCGCUCAUAAAGUUUUAAAUUCUGGACCAAUAGUGUUUGUUUCCUGAUUAUUGUAUCCAAUACUUUGCCUAGUAUGUAACUCAUGCUUACUGAUAAUAAAA: 0.583 ratio
